Experimental data collected from several papers.
Each line is one published result; not all experiments were run side by side. Several values in a cell are separate wells, animals, samples, runs or records.
Target: Tyrosine-protein kinase CSK (CSK, Homo sapiens, UniProt P41240)

| SMILES | assay | system | setting | scale | endpoint | value |
| --- | --- | --- | --- | --- | --- | --- |
| Nc1ncc2c(n1)-c1c([nH]c3ccc(C4=CCOCC4)cc13)CCC2 | binding, competition with immobilised ligand | – | 1 µM | – | remaining binding | 81% |
| CC(C)=CC1OC(C)(C)C2C=C3C(=O)C(Cl)=CC(O)C3C3C(O)C4OC4C(=O)C132 (centres unmarked) | cell-free assay, competition with immobilised ligand | – | 10 µM | – | remaining binding | 91% |
| Nc1nc(Nc2ccccc2)sc1C(=O)c1ccccc1 | enzyme activity, inhibitor | – | 10 µM | – | remaining activity | 57% |
| COCC12C(=O)NC3C4(C(OC)CC1O)C1CC5(O)C(OC)C(O)C(OC(C)=O)(C1C5OC(=O)c1ccccc1)C3(O)C(OC)C24 (centres unmarked) | kinase activity, inhibitor, ProQinase kinase profiling | – | 25 µM | reference: control | remaining activity | 85% and 84% |
| COc1c(Cl)cccc1Nc1c(-c2ccncc2C#C[C@@]2(C)CCCN2C(=O)/C=C/CN(C)C)[nH]c2c1C(=O)NCC2 | cell-free assay, competition with immobilised ligand | – | 3 µM | – | remaining binding | 85% |
| N[C@H]1CC[C@H](Nc2nccc(-c3cccnc3Oc3ccc(NC(=O)NC4CC4)c4ccccc34)n2)CC1 | kinobead competition pulldown | HEK293/HCT116 lysate mixture | 10 µM, 1 h, 4 °C | lower = stronger competition | log2 LFQ intensity | 27.4 and 27.2 |
| CCN1CCN(Cc2ccc(C(=O)Nc3ccc(C)c(NCc4cnc5[nH]ccc5c4OC)c3)cc2C(F)(F)F)CC1 | binding, competition with immobilised ligand | – | 1 µM | – | remaining binding | 1% |
| NC(=O)C[C@H]1CCc2sc3ncnc(O[C@H]4CC[C@H](N5CCOCC5)CC4)c3c21 | enzyme activity, inhibitor | – | 10 µM | – | inhibition | 21% |
| Cc1cccc(-c2ccc3nc(NC(=O)C4CCCCC4)nn3c2)c1 | enzyme activity, Dundee kinase panel | – | 10 µM | – | remaining activity | 94% |
| O=C=[N][Ru-4]123([n]4c5ccc(O)cc5c5c6c(c7cc(F)c[n+]1c7c54)C(=O)NC6=O)[S+]1CC[S+]2CC[S+]3CC1 (centres unmarked) | enzyme activity | – | 100 nM, human enzyme, added: 10 µM ATP | reference: untreated | remaining activity | 102% |
| C=CC(=O)N1CCc2ccc(-n3c(=O)ccc4cnc5ccc(-c6cnn(C)c6)cc5c43)cc21 | KINOMEscan | – | 1 µM | reference: DMSO control | remaining binding | 100% |
| Cc1cccc(-c2ccc3nc(NC(=O)C4CCCO4)nn3c2)c1 (centres unmarked) | enzyme activity, Dundee kinase panel | – | 10 µM | – | remaining activity | 84% |
| COc1cc(Nc2nc(C)cc(-c3cnn4nc(OC)ccc34)n2)cc(C(F)(F)F)c1 | inhibitor | – | 1 µM | reference: control | remaining activity | 59% |
| Cc1cccc(O[C@H]2CCC[C@@H](C(C)CNCc3ccncc3)C2)c1 (relative stereo) | kinase activity, kinome panel screening | – | 1 µM | – | inhibition | 4% |
| CN1CCN(Cc2ccc(-c3ccc(CO[C@H]4CCC[C@@H]4NC(=O)c4cc(-c5cnn(C)c5)cnc4N)cc3)cc2)CC1 | enzyme activity, inhibitor | – | 0.1 µM | – | inhibition | 7% |
| Cc1cnc2nc1Nc1cccc(c1)COC/C=C/COCc1cc(ccc1OCCN1CCOCC1)N2 | – | – | concentration not given | – | percent of control | 78% |
| Cc1nc2c(F)cc(-c3nc(Nc4ccc(CNC(=O)CCCCCCC(=O)NO)cc4)ncc3F)cc2n1C(C)C | enzyme activity, inhibitor | – | 1 µM | – | inhibition | 33% |
| C=CC(=O)Nc1cccc(-c2cnc3[nH]cc(C(=O)NC(C)(C)C)c3n2)c1 | enzyme activity, inhibitor | – | 0.1 µM | – | inhibition | 4% |
| C=CC(=O)N1Cc2nc(-c3cc(-c4cc(Cl)cnc4Cl)c(F)cc3F)n(-c3ccncn3)c2C1 | enzyme activity, inhibitor | – | 1 µM | – | inhibition | 6.3% |
| O=C(Nc1ccc(Oc2ncnc3[nH]cc(-c4ccccc4)c23)c(F)c1)c1c2n(n(-c3cc(F)ccc3F)c1=O)CCCC2 | enzyme activity, inhibitor | – | 0.5 µM | – | inhibition | -14% |

For quick reference, copied from above:
| SMILES | assay | system | setting | scale | endpoint | value |
| --- | --- | --- | --- | --- | --- | --- |
| CCN1CCN(Cc2ccc(C(=O)Nc3ccc(C)c(NCc4cnc5[nH]ccc5c4OC)c3)cc2C(F)(F)F)CC1 | binding, competition with immobilised ligand | – | 1 µM | – | remaining binding | 1% |
